Experimental data from different studies.
Protocols differ between the studies behind these lines.
KRAS G12D GDP-bound: GTPase KRas, GDP-bound (KRAS, Homo sapiens, UniProt P01116, G12D)
KRAS C118A/G12C: GTPase KRas (KRAS, Homo sapiens, UniProt P01116, C118A/G12C)

Structure (SMILES) | target | assay | conditions | scale | quantity | value
CC[C@H](C)[C@@H]1NC(=O)[C@H](CCc2ccccc2)NC(=O)[C@H](CC(C)C)NC(=O)[C@@H]2CCCN2C(=O)[C@@H](NC(=O)[C@H](CCCNC(=N)N)NC(=O)[C@H](CCCNC(=N)N)NC(C)=O)CSSC[C@@H](C(=O)N[C@@H](CCCNC(=N)N)C(=O)N[C@@H](CCCNC(=N)N)C(N)=O)NC(=O)[C@H](C(C)C)NC(=O)[C@@H]2CCCN2C(=O)[C@H](CC(=O)O)NC(=O)[C@H](Cc2ccc(O)cc2)NC(=O)[C@H](CO)NC1=O | KRAS G12D GDP-bound | affinity selection mass spectrometry | mixture library 1, added: protein titration up to 5 µM | lower is stronger binding | lowest bound protein concentration | 0.31 µM
C[C@H]1CN(CC(F)(F)F)CCN1c1nccc(-c2noc([C@@]3(C)CCCc4sc(N)c(C#N)c43)n2)n1 | GTPase KRas, with SOS1 (KRAS, Homo sapiens, UniProt P01116, C118S/G12V) | KRAS G12V-SOS1 binding, inhibitor, AlphaScreen |  | reference: other N-substituted piperazines | potency loss from trifluoroethyl | > 100 fold
C=CC(=O)N1CC2(CCN(c3nc(N[C@H](CC(=O)NC)CC(C)C)c4ccccc4n3)C2)C1 | KRAS C118A/G12C | SOS1-catalysed nucleotide exchange, AlphaScreen |  |  | ligand efficiency | 0.21
C=CCO[C@H]1CCN2C(=O)[C@@H](NC(=O)[C@H](CCCNC(=N)N)NC(=O)[C@H](CCCNC(=N)N)NC(C)=O)CSSC[C@@H](C(=O)N[C@@H](CCCNC(=N)N)C(=O)N[C@@H](CCCNC(=N)N)C(N)=O)NC(=O)[C@H](C(C)C)NC(=O)[C@@H]3CCCN3C(=O)[C@H](CC(=O)O)NC(=O)[C@H](Cc3ccc(O)cc3)NC(=O)[C@H](CO)NC(=O)[C@H]([C@@H](C)CC)NC(=O)[C@H](Cc3ccc(-c4ccccc4)cc3)NC(=O)[C@H](CC3CCC3)NC(=O)[C@H]12 | KRAS G12D GDP-bound | affinity selection mass spectrometry | mixture library 3, added: protein titration up to 2.5 µM | lower is stronger binding | lowest bound protein concentration | 0.04 µM
C=CC(=O)N1CC2(CCN(c3nc4c(c(N[C@H](CC(=O)NC)CC(C)C)n3)CCCC4)C2)C1 | KRAS C118A/G12C | SOS1-catalysed nucleotide exchange, AlphaScreen |  |  | ligand efficiency | 0.24
Cc1nn2c(N3CCN(CCO)CC3)cc(-c3ccccc3)nc2c1-c1ccccc1 | GTPase KRas, GDP-bound (KRAS, Homo sapiens, UniProt P01116) | binding, to KRAS, GDP-bound, microscale thermophoresis |  |  | binding onset concentration | > 20 µM
C=CC(=O)N1C[C@H](C)N(c2nc(OC[C@@]34CCCN3C[C@H](F)C4)nc3c(F)c(-c4ccc(F)c5sc(N)c(C#N)c45)c(C(F)(F)F)cc23)C[C@H]1C | GTPase KRas, GDP-bound (KRAS, Homo sapiens, UniProt P01116, G12C) | covalent inhibitor, SPR | GDP-bound, biotinylated |  | kinact | 0.00236 s⁻¹
C=CC(=O)N1CC2(CCN(c3nc4c(c(-c5cccc6sc(N)nc56)n3)CCCC4)C2)C1 | KRAS C118A/G12C | SOS1-catalysed nucleotide exchange, AlphaScreen |  |  | ligand efficiency | 0.22
CC[C@H](C)[C@@H]1NC(=O)[C@H](Cc2ccc(O)cc2)NC(=O)[C@H](CC(C)C)NC(=O)[C@@H]2CCCN2C(=O)[C@@H](NC(=O)[C@H](CCCNC(=N)N)NC(=O)[C@H](CCCNC(=N)N)NC(C)=O)CSSC[C@@H](C(=O)N[C@@H](CCCNC(=N)N)C(=O)N[C@@H](CCCNC(=N)N)C(N)=O)NC(=O)[C@H](C(C)C)NC(=O)[C@@H]2CCCN2C(=O)[C@H](CC(=O)O)NC(=O)[C@H](CC2CCCCC2)NC(=O)[C@H](CO)NC1=O | KRAS G12D GDP-bound | affinity selection mass spectrometry | mixture library 2, added: protein titration up to 5 µM | lower is stronger binding | lowest bound protein concentration | 0.16 µM
C=CC(=O)N1CC2(CCN(c3nc4c(c(-c5cc(O)cc6ccccc56)n3)CCCC4)C2)C1 | KRAS C118A/G12C | SOS1-catalysed nucleotide exchange, AlphaScreen |  |  | ligand efficiency | 0.23
CCC[C@@H]1NC(=O)[C@H](CCc2ccccc2)NC(=O)[C@H](CC(C)C)NC(=O)[C@@H]2CCCN2C(=O)[C@@H](NC(=O)[C@H](CCCNC(=N)N)NC(=O)[C@H](CCCNC(=N)N)NC(C)=O)CSSC[C@@H](C(=O)N[C@@H](CCCNC(=N)N)C(=O)N[C@@H](CCCNC(=N)N)C(N)=O)NC(=O)[C@H](C(C)C)NC(=O)[C@@H]2CCCN2C(=O)[C@H](CC(=O)O)NC(=O)[C@H](Cc2ccc(O)cc2)NC(=O)[C@H](CO)NC1=O | KRAS G12D GDP-bound | affinity selection mass spectrometry | mixture library 1, added: protein titration up to 5 µM | lower is stronger binding | lowest bound protein concentration | 5 µM
C=C1CN2CCC[C@@]2(COc2nc3c4c(c(Cl)c(-c5nc(N)cc(C)c5C(F)(F)F)cc4n2)OC[C@@H]2CN(C(=O)/C=C/c4nccc5c4CNCC5)CCN32)C1 | GTPase KRas, GDP-bound (KRAS, Homo sapiens, UniProt P01116, G13D) | nucleotide exchange, inhibitor, HTRF |  | reference: 27 | potency improvement | ~14 fold
C#Cc1c(F)ccc2cc(O)cc(-c3ncc4c(N5CC6CCC(C5)N6)nc(OC[C@@]56CCCN5C[C@H](F)C6)nc4c3F)c12 | GTPase KRas, GppNHp-bound (KRAS, Homo sapiens, UniProt P01116) | SPR | wild type | reference: GppNHp-bound over GDP-bound | off-rate increase | 14 fold

A few entries again:
Structure (SMILES) | target | assay | conditions | scale | quantity | value
C[C@H]1CN(CC(F)(F)F)CCN1c1nccc(-c2noc([C@@]3(C)CCCc4sc(N)c(C#N)c43)n2)n1 | GTPase KRas, with SOS1 (KRAS, Homo sapiens, UniProt P01116, C118S/G12V) | KRAS G12V-SOS1 binding, inhibitor, AlphaScreen |  | reference: other N-substituted piperazines | potency loss from trifluoroethyl | > 100 fold
C=CC(=O)N1CC2(CCN(c3nc(N[C@H](CC(=O)NC)CC(C)C)c4ccccc4n3)C2)C1 | KRAS C118A/G12C | SOS1-catalysed nucleotide exchange, AlphaScreen |  |  | ligand efficiency | 0.21
